Measurements gathered from unrelated publications.
Values joined by “and” are separate records of one study, mostly repeats; a detail may differ. ± gives the spread as reported. Converted amounts (≈) assume the structure as drawn.
UniProt Q9H3G5, sequence (whole entry, looked up): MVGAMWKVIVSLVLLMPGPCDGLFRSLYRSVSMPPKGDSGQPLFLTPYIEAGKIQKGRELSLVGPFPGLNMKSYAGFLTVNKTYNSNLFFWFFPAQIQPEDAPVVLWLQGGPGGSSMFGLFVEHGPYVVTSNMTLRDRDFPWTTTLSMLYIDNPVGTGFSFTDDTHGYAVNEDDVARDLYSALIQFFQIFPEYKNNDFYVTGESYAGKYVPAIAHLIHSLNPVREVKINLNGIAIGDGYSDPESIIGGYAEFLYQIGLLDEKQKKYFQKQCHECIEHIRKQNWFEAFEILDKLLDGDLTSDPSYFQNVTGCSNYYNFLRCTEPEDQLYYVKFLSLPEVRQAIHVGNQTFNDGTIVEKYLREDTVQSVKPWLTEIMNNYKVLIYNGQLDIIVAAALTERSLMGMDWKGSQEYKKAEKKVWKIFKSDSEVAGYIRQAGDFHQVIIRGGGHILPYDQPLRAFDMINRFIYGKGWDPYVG
UniProt P27487, sequence (whole entry, looked up): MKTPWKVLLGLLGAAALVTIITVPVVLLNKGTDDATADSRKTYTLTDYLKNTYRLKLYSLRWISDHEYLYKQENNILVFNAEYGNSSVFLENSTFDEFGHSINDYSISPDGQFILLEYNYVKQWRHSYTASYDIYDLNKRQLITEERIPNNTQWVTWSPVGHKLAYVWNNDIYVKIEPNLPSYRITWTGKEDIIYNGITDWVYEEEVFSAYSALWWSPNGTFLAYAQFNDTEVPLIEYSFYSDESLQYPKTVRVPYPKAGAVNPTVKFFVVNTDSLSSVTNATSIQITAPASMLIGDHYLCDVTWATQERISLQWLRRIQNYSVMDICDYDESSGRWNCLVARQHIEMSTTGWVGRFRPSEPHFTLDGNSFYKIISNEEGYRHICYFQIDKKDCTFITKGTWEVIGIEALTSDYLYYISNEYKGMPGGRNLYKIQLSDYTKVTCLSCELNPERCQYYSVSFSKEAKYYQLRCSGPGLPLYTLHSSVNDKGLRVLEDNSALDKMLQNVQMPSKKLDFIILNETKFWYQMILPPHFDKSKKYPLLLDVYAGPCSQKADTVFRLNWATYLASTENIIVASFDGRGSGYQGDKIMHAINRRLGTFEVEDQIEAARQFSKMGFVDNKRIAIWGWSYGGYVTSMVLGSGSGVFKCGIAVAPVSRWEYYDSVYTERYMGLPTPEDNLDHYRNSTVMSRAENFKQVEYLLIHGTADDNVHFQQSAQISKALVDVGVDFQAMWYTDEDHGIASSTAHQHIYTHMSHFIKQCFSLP

Compound = CN1CCN(S(=O)(=O)c2cc([N+](=O)[O-])ccc2N(CCOS(C)(=O)=O)CCOS(C)(=O)=O)CC1; test system = NSG mice, sample BB PDX; conditions = intraperitoneal, 25 mg/kg weekly x3; endpoint = event-free survival; result = 31.2 days
Compound = COc1cc(CCC[P+](c2ccccc2)(c2ccccc2)c2ccccc2)c(OC)c2c1OCO2.[I-]; tested on = HCC 2998; assay = SRB; endpoint = LC50; result = -4.4 log M
Compound = O=C(O)CNC(=O)c1cc2ccccc2n1Cc1ccc(Br)c2ccccc12; test system = mouse, acute hyperuricaemia model; conditions = oral, 2 mg/kg; scale = baseline: model control; endpoint = serum uric acid decrease; result = 28.7%
Compound = Cc1ccc2cc(N3CCC4(O)C(=O)c5cc(C)c(C)cc5N=C34)ccc2n1 (stereo not shown); test system = rat; conditions = IV, methamphetamine seeking; endpoint = minimally efficacious dose; result = 2 mg/kg
Compound = COc1cc2c(Oc3ccc4[nH]c(C)cc4c3F)ccnc2cc1OCC1(N)CC1; test system = paediatric recurrent refractory sarcoma; conditions = 12 mg; endpoint = grade 1 or 2 abdominal distension; result = 9.1%
Compound = COc1cc2nccc(Oc3ccc(NC(=O)c4cc5c(n(-c6ccccc6)c4=O)CCCC5=O)nc3)c2cc1OC; test system = MOLM-13 luc/gfp xenograft, mice; conditions = diet, 0.004% in feed; scale = baseline: control over treated; endpoint = median survival ratio; result = 0.75
Compound = [131I-].[Na+]; test system = human, paediatric low-risk differentiated thyroid carcinoma; conditions = 30-100 mCi; endpoint = complete response after single dose; result = 83.3%
Compound = C=CC(=O)N[C@H]1C=C(C)c2c(-c3cnc4ccccc4c3)c3c(N)ncnc3n2C1; test system = NCI-H2073 parental xenograft (EGFR wild-type), BALB/c nude mice; conditions = 100 mg/kg once daily, 21 days; endpoint = tumour growth inhibition; result = 66.7%
Compound = Cc1cn(-c2cc(NC(=O)c3ccc(C)c(Nc4nccc(-c5cccnc5)n4)c3)cc(C(F)(F)F)c2)cn1; test system = Homo sapiens; conditions = 300 mg, 12 months; scale = direction not given; endpoint = NPI caregiver distress score; result = 2.9 ± 3.3
Compound = C[C@H]1O[C@@H](O[C@H]2CC[C@@]3(C)[C@@H](CC[C@]4(C)[C@@H]3C=C[C@]35OC[C@@]6(CCC(C)(C)C[C@H]63)[C@@H](O)C[C@]54C)[C@]2(C)CO)[C@H](O)[C@@H](O[C@@H]2O[C@H](CO)[C@@H](O)[C@H](O)[C@H]2O)[C@H]1O; test system = mouse, chronic-plus-binge ethanol, AAV8-TBG-Null, liver; conditions = dose not given, high dose; endpoint = hepatic triglycerides; result = 0.168 mmol/g protein and 0.0877 mmol/g protein and 0.132 mmol/g protein and 0.0563 mmol/g protein and 0.0855 mmol/g protein
Compound = Cc1nc(Nc2ccc(CC(=O)O)cc2)nc(Nc2ccc(F)c(C(F)(F)F)c2)c1C; test system = C57BL/6J mouse, high-fat diet MASH model, serum; conditions = intraperitoneal, 0.3 mg/kg daily, 60% fat diet for 12 weeks, dosed final four weeks; scale = baseline: untreated; endpoint = ALT level; result = decreased
Compound = CC[C@H](C)[C@H](NC(=O)[C@H](Cc1ccccc1)NC(=O)[C@H](CCC(=O)O)NC(=O)[C@H](CCCNC(=N)N)NC(=O)[C@H](C)NC(=O)[C@H](C)NC(=O)[C@H](CCC(N)=O)NC(=O)[C@H](CCC(=O)O)NC(=O)[C@H](CCC(=O)O)NC(=O)[C@H](CC(C)C)NC(=O)[C@H](Cc1ccc(O)cc1)NC(=O)[C@H](CO)NC(=O)[C@H](CO)NC(=O)[C@@H](NC(=O)[C@H](CC(=O)O)NC(=O)[C@H](CO)NC(=O)[C@@H](NC(=O)[C@H](Cc1ccccc1)NC(=O)[C@@H](NC(=O)CNC(=O)[C@H](CCC(=O)O)NC(=O)[C@H](C)NC(=O)CCc1c[nH]cn1)[C@@H](C)O)[C@@H](C)O)C(C)C)C(=O)N[C@@H](C)C(=O)N[C@@H](Cc1c[nH]c2ccccc12)C(=O)N[C@@H](CC(C)C)C(=O)N[C@H](C(=O)N[C@@H](CCCNC(=N)N)C(=O)NCC(=O)N[C@@H](CCCNC(=N)N)C(=O)N[C@@H](CCCCNC(=O)COCCOCCNC(=O)COCCOCCNC(=O)CC[C@H](NC(=O)CCCCCCCCCCCCCCCCC(=O)O)C(=O)O)C(=O)NCC(=O)NCC(=O)N[C@@H](CO)C(=O)N[C@@H](CCCCNc1c(NCCCCCN(O)C(=O)CCC(=O)NCCCCCN(O)C(=O)CCC(=O)NCCCCCN(O)C(C)=O)c(=O)c1=O)C(=O)O)C(C)C [zirconium-89 labelled]; test system = rat, pancreas; conditions = iv, 3 nmol/kg, 168 h, ex vivo; endpoint = tissue uptake; result = 0.11 %ID/g
Compound = c1ccc2c(c1)Nc1ccccc1S2; test system = CT26 tumour-bearing mice; conditions = intraperitoneal, 100 mg/kg equivalents daily, day 0; endpoint = tumour volume; result = 128 mm³
Compound = COc1c(CCC[P+](c2ccccc2)(c2ccccc2)c2ccccc2)cc2c(c1OC)OCO2.[I-]; tested on = HCC 2998; assay = SRB; endpoint = TGI; result = -4.84 log M
Compound = C=CC(=O)Nc1cc(Nc2ncc(Cl)c(Nc3ccccc3C(=O)C(=O)N(C)C)n2)c(OC)cc1N1CCN(C)CC1; assay = RECIST v1.1 best response; test system = human EGFR T790M NSCLC; conditions = oral, 200 mg/day, per-protocol set; endpoint = patients with complete response; result = 0%
Compound = CC[C@H](C)[C@@H]1NC(=O)[C@@H]2CCCN2C(=O)[C@H](CC(C)C)NC(=O)[C@H](CC(C)C)NC(=O)CNC(=O)[C@@H](NC(=O)[C@@H](NC(=O)[C@H](CC(=O)O)NC(=O)CNC(=O)[C@@H](NC(=O)[C@H](C)NC(=O)CNC(=O)[C@H](CCCCN)NC(=O)[C@H](CC(C)C)NC(=O)[C@H](CC(C)C)NC(=O)[C@H](CCCCN)NC(=O)CNC(=O)[C@@H](NC(=O)[C@@H](N)CC(C)C)C(C)C)C(C)C)C(C)C)CSSC[C@@H](C(=O)O)NC1=O; assay = RNA-seq, measured: novel.265 mRNA; test system = mouse traumatic brain injury, frontal cortex and hippocampus; conditions = dose not given; scale = baseline: TBI plus compound vs TBI; endpoint = log2 fold change; result = -3.17
Compound = CC[C@H](C)[C@H](NC(=O)[C@H](C)NC(=O)[C@H](CCCCN)NC(=O)[C@H](CC(C)C)NC(=O)[C@H](C)NC(=O)[C@@H](NC(=O)[C@H](Cc1c[nH]cn1)NC(=O)[C@H](CC(C)C)NC(=O)[C@@H](NC(=O)[C@@H](NC(=O)[C@H](CCCCN)NC(=O)[C@H](C)NC(=O)[C@H](C)NC(=O)[C@H](CO)NC(=O)[C@H](CCCCN)NC(=O)[C@H](Cc1ccccc1)NC(=O)[C@@H](NC(=O)[C@H](CCCCN)NC(=O)[C@H](CC(C)C)NC(=O)[C@H](Cc1ccccc1)NC(=O)[C@H](CO)NC(=O)[C@H](CCCCN)NC(=O)[C@H](Cc1c[nH]c2ccccc12)NC(=O)[C@H](CCCCN)NC(C)=O)[C@@H](C)O)[C@@H](C)O)C(C)C)[C@@H](C)O)C(=O)N[C@@H](CO)C(=O)N[C@@H](CO)C(N)=O; tested on = Staphylococcus aureus; test system = ATCC 29213; endpoint = MBC50; result = 8 µg/mL (≈ 2.73 µM)
Compound = O=C(O)/C=C/C(=O)O.Oc1cccc2[nH]cc(CCNCc3ccccc3)c12; test system = C57BL/6J mice; conditions = subcutaneous, 0.03 mg/kg, 30 min; endpoint = distance travelled; result = 2650 ± 254 cm
Compound = Cc1cccc(C)c1NC(=O)C1CCCCN1 (stereo not shown); test system = Sprague-Dawley rat, male, sciatic nerve; conditions = 22.5 mM; endpoint = sensory block duration; result = 34.5 ± 14.9 min
Compound = CCCCC1(CCCC)CN(c2ccccc2)c2cc(SC)c(OCC(=O)N[C@@H](C(=O)NCC(=O)O)c3ccccc3)cc2S(=O)(=O)C1; assay = measured: HDL cholesterol; test system = human, serum; conditions = 10 mg once daily, day 7; endpoint = serum HDL-C; result = 48.8 mg/dL
Compound = C[C@H](NC(=O)c1c(C(F)F)nn(C)c1Oc1cccc(C(F)(F)F)c1)c1ccc(C(=O)O)cc1; test system = human, advanced tumours; conditions = 500 mg; endpoint = deaths; result = 0%
Compound = N.N.[Cl][Pt][Cl]; test system = KSN/Slc nude mice, SAS xenograft; conditions = dose not given, day 6; endpoint = tumour volume; result = 177 mm3 and 253 mm3 and 260 mm3 and 113 mm3 and 190 mm3 and 59.1 mm3 and 402 mm3 and 109 mm3
Compound = COc1cc(Nc2ncc(F)c(Nc3ccc4c(n3)NC(=O)C(C)(C)O4)n2)cc(OC)c1OC; tested on = Dipeptidyl peptidase 4 (DPP4, Homo sapiens, UniProt P27487); assay = enzyme activity, inhibitor; endpoint = IC50; result = > 10 µM
Compound = Cc1c(C(=O)O)ccc2c3n(nc12)[C@@H]1[C@H](C3)N(CC2CC2)[C@@]2(C(=O)Nc3cc(Cl)ccc32)[C@H]1c1cccc(Cl)c1F; test system = mice, orthotopic PDX, MDM2 non-amplified; conditions = weekly, 2 mg/kg, for 12 weeks; endpoint = median survival; result = 63 days
Compound = COc1cc2c3c(n(CCCNCCO)c(=O)c2cc1OC)-c1cc2c(cc1C3=O)OCO2; test system = GL261-Luc, mouse orthotopic glioblastoma; conditions = intravenous, 20 mg/kg; endpoint = mean survival time; result = 22 days
Compound = O=C(c1ccc(Cl)cc1)N1CCN2C(=O)N(OC(=O)N3CCOc4ccccc43)C(=O)C2C1 (stereo not shown); tested on = Probable serine carboxypeptidase CPVL (CPVL, Homo sapiens, UniProt Q9H3G5); assay = MS-based ABPP; test system = SW-620 conditioned medium; conditions = 10 µM, 1 h, 37 °C; scale = baseline: compound over DMSO, lower = more inhibition; endpoint = median protein ratio; result = 1.11
Compound = C[C@H]1CN(c2n[nH]c3nc(N[C@H]4CC[C@H](NS(=O)(=O)CCC(F)(F)F)CC4)ncc23)CCO1; tested on = Cytoplasmic dynein 1 heavy chain 1 (DYNC1H1, Homo sapiens, UniProt Q14204); assay = inhibitor, Kinobeads competition profiling; conditions = 0.032 µM; scale = baseline: vehicle; endpoint = relative abundance; result = 1.01
Compound = COc1ccc(N2C(=O)N(c3c(C)cccc3Cl)Cc3cnc(Nc4ccc(C5CCN(C)CC5)cc4OC)nc32)nc1; tested on = Proto-oncogene tyrosine-protein kinase Src (SRC, Homo sapiens, UniProt P12931); assay = kinase activity; conditions = 0.5 µM; endpoint = inhibition; result = 95%

Some of these lines once more:
Compound = COc1cc(Nc2ncc(F)c(Nc3ccc4c(n3)NC(=O)C(C)(C)O4)n2)cc(OC)c1OC; tested on = Dipeptidyl peptidase 4 (DPP4, Homo sapiens, UniProt P27487); assay = enzyme activity, inhibitor; endpoint = IC50; result = > 10 µM
Compound = Cc1c(C(=O)O)ccc2c3n(nc12)[C@@H]1[C@H](C3)N(CC2CC2)[C@@]2(C(=O)Nc3cc(Cl)ccc32)[C@H]1c1cccc(Cl)c1F; test system = mice, orthotopic PDX, MDM2 non-amplified; conditions = weekly, 2 mg/kg, for 12 weeks; endpoint = median survival; result = 63 days
Compound = COc1cc2c3c(n(CCCNCCO)c(=O)c2cc1OC)-c1cc2c(cc1C3=O)OCO2; test system = GL261-Luc, mouse orthotopic glioblastoma; conditions = intravenous, 20 mg/kg; endpoint = mean survival time; result = 22 days
Compound = O=C(c1ccc(Cl)cc1)N1CCN2C(=O)N(OC(=O)N3CCOc4ccccc43)C(=O)C2C1 (stereo not shown); tested on = Probable serine carboxypeptidase CPVL (CPVL, Homo sapiens, UniProt Q9H3G5); assay = MS-based ABPP; test system = SW-620 conditioned medium; conditions = 10 µM, 1 h, 37 °C; scale = baseline: compound over DMSO, lower = more inhibition; endpoint = median protein ratio; result = 1.11
